Assay results from different studies.
Organism: Enterococcus faecalis

| SMILES | assay | test system | setting | MIC |
| --- | --- | --- | --- | --- |
| CC(C)C[C@@H](NC(=O)[C@H](C)NC(=O)CNC(=O)[C@@H](NC=O)C(C)C)C(=O)N[C@@H](C)C(=O)N[C@@H](C(=O)N[C@H](C(=O)N[C@@H](C(=O)N[C@@H](Cc1c[nH]c2ccccc12)C(=O)N[C@H](CC(C)C)C(=O)N[C@@H](Cc1cccc2[nH]ccc12)C(=O)N[C@H](CC(C)C)C(=O)N[C@@H](Cc1c[nH]c2ccccc12)C(=O)N[C@H](CC(C)C)C(=O)N[C@@H](Cc1c[nH]c2ccccc12)C(=O)NCCO)C(C)C)C(C)C)C(C)C | broth microdilution | JCM 5803 |  | 0.13 µM |
| CCCNc1nc(N(C)C)c2c(c1O)C(=O)C1=C(O)[C@]3(O)C(=O)C(C(N)=O)=C(O)[C@@H](N(C)C)[C@@H]3C[C@@H]1C2.Cl.Cl |  | tet(M)-carrying |  | > 32 µg/mL |
| Oc1c(Br)cc(Br)c2nc3ccccc3nc12 | broth microdilution | OG1RF, BHI broth | 16 h, 37 °C | 18.8 µM |
| CC[C@H](C)[C@H](NC(=O)[C@H](CC(C)C)NC(=O)[C@H](CCCCN)NC(=O)[C@H](CC(C)C)NC(=O)CNC(=O)[C@@H](NC(=O)[C@H](CO)NC(=O)[C@@H](NC(=O)[C@@H](NC(=O)[C@H](CCC(N)=O)NC(=O)[C@H](Cc1c[nH]c2ccccc12)NC(=O)[C@H](CCCNC(=N)N)NC(=O)[C@H](CC(N)=O)NC(=O)[C@H](CCCNC(=N)N)NC(=O)[C@H](CCCNC(=N)N)NC(=O)[C@@H](NC(=O)[C@H](Cc1ccccc1)NC(=O)[C@H](CCCNC(=N)N)NC(=O)CNC(=O)[C@H](C)NC(=O)[C@H](CCCNC(=N)N)NC(=O)[C@H](CCCNC(=N)N)NC(=O)[C@H](CCCCN)NC(=O)[C@H](Cc1ccccc1)NC(=O)[C@H](CCCNC(=N)N)NC(=O)CNC(=O)[C@H](Cc1c[nH]c2ccccc12)NC(=O)[C@H](CCCNC(=N)N)NC(=O)CNC(=O)[C@H](CCCNC(=N)N)NC(=O)[C@@H](N)[C@@H](C)O)[C@@H](C)CC)[C@@H](C)CC)[C@@H](C)CC)[C@@H](C)O)C(=O)NCC(=O)O |  | ATCC 29212 | highest concentration 50 µM | 4.79 µM |
| Cc1ccc2[nH]c3c(c2c1)CCCC3NCCc1ccc(O)cc1 (stereo not drawn) | broth microdilution | JH2-2 |  | 16 µg/mL |
| CCCCCCCC(=O)N[C@@H](CCCNC(=N)N)C(=O)N[C@@H](CCCNC(=N)N)C(=O)N[C@@H](CCCNC(=N)N)C(=O)N[C@@H](CCCNC(=N)N)C(=O)N[C@H](C(=O)N[C@@H](CC(C)C)C(=O)N[C@H](C(=O)N[C@@H](CCCCN)C(=O)N[C@@H](CCCCN)C(=O)N[C@H](C(=O)N[C@@H](CC(C)C)C(=O)N[C@@H](CCCCN)C(=O)N[C@@H](CC(C)C)C(=O)N[C@@H](CCCCN)C(=O)N[C@@H](CO)C(=O)N[C@@H](CO)C(=O)N[C@@H](C)C(=O)N[C@@H](Cc1ccc(O)cc1)C(N)=O)C(C)C)[C@@H](C)CC)[C@@H](C)CC | broth microdilution | ATCC 29212 | highest value reported | 64 µM |
| Cn1c(=O)ccc2ccc(F)c(CCNC[C@H]3CN(c4ccc5c(n4)NC(=O)CO5)C(=O)O3)c21 |  | ATCC 29212 |  | 0.03 µg/mL |
| CN(C)[C@@H]1C(O)=C(C(N)=O)C(=O)[C@@]2(O)C(O)=C3C(=O)c4c(O)cnc(F)c4C[C@H]3C[C@@H]12.Cl |  | tet(M)-carrying |  | 32 µg/mL |
| CC[C@H](C)[C@H](N)C(=O)N[C@@H](CO)C(=O)N[C@@H](Cc1ccccc1)C(=O)N[C@@H](CC(C)C)C(=O)NCC(=O)N[C@@H](CO)C(=O)N[C@@H](CCCCN)C(=O)N[C@H](C(=O)N[C@H](C(=O)N[C@H](C(=O)N[C@@H](CC(C)C)C(=O)N[C@@H](CC(C)C)C(=O)N[C@@H](CCCCN)C(=O)N[C@@H](CCCNC(=N)N)C(=O)N[C@@H](CCCNC(=N)N)C(=O)N[C@@H](CCCCN)C(=O)N[C@@H](CCCNC(=N)N)C(=O)N[C@@H](CCCCN)C(=O)N[C@@H](CCCNC(=N)N)C(=O)N[C@@H](CCCCN)C(N)=O)C(C)C)C(C)C)C(C)C | broth microdilution | ATCC 29212 | highest value reported | 8 µM |
| CC[C@H](C)[C@H](NC(=O)[C@@H](NC(=O)[C@H](Cc1ccccc1)NC(=O)CNC(=O)[C@H](CCC(N)=O)NC(=O)[C@H](CCCCN)NC(=O)[C@H](C)N)C(C)C)C(=O)N[C@@H](Cc1ccc(O)cc1)C(=O)N[C@@H](CCCNC(=N)N)C(=O)N[C@H](C(=O)N[C@@H](CCCNC(=N)N)C(=O)N[C@H](C(=O)N[C@@H](CCCNC(=N)N)C(=O)N[C@@H](CCCNC(=N)N)C(=O)NCC(=O)N[C@@H](CC(N)=O)C(=O)N[C@@H](CCCNC(=N)N)C(=O)N[C@@H](CCCCN)C(N)=O)C(C)C)C(C)C | broth dilution | KCTC 3511 |  | > 100 µM |
| CN[C@H](CC(C)C)C(=O)N[C@H]1C(=O)N[C@@H](CC(N)=O)C(=O)N[C@H]2C(=O)NC3C(=O)N[C@H](C(=O)N[C@H](C(=O)NCCC[N+](C)(C)C)c4cc(O)cc(O)c4-c4cc3ccc4O)[C@H](O)c3ccc(c(Cl)c3)Oc3cc2cc(c3OC2OC(CO)C(O)[C@H](O)[C@@H]2O[C@H]2CC(C)(NCc3ccc(-c4ccc(Cl)cc4)cc3)[C@H](O)[C@H](C)O2)Oc2ccc(cc2Cl)[C@H]1O (stereo partly drawn) |  | BM4166, VanA vancomycin-resistant | added: lipoteichoic acid 100 µg/mL | 20 µg/mL |
| CC[C@H](C)[C@H](N)C(=O)N[C@@H](CCCNC(=N)N)C(=O)N[C@H](C(=O)N[C@@H](Cc1c[nH]c2ccccc12)C(=O)N[C@@H](Cc1ccccc1)C(=O)N[C@H](C(=O)N[C@@H](CCCCN)C(=O)N[C@H](C(=O)N[C@@H](CCCNC(=N)N)C(=O)N[C@@H](CCCCN)C(=O)N[C@@H](Cc1c[nH]c2ccccc12)C(=O)N[C@@H](CCCCN)C(=O)N[C@@H](C)C(=O)N[C@H](C(=O)N[C@@H](Cc1ccc(O)cc1)C(=O)N[C@@H](Cc1c[nH]cn1)C(=O)N[C@H](C(N)=O)[C@@H](C)O)[C@@H](C)CC)C(C)C)[C@@H](C)CC)C(C)C | broth dilution | KCTC 3511 |  | 12.5 µM |
| CCCCCCCCCCCCCCCC(=O)NS(=O)(=O)OCC |  | ATCC 33186 |  | > 200 µg/mL |
| CN(C)[C@@H]1C(O)=C(C(N)=O)C(=O)[C@@]2(O)C(O)=C3C(=O)c4c(O)cnc(-c5ccccc5)c4C[C@H]3C[C@@H]12.Cl.Cl |  | tet(M)-carrying |  | > 32 µg/mL |
| CN1C(=O)Cc2ccc(F)c(CCNC[C@H]3CN(c4ccc5c(n4)NC(=O)CO5)C(=O)O3)c21 |  | ATCC 29212 |  | 0.125 µg/mL |
| CN(C)[C@@H]1C(O)=C(C(N)=O)C(=O)[C@@]2(O)C(O)=C3C(=O)c4c(O)cnc(Cl)c4C[C@H]3C[C@@H]12.Cl |  | tet(M)-carrying |  | > 32 µg/mL |
| CC[C@@H](C)[C@@H](NC(=O)[C@@H](CC(C)C)NC(=O)[C@H](NC(=O)[C@H](NC(=O)[C@H](NC(=O)[C@@H](CCCCN)NC(=O)[C@@H](CCCCN)NC(=O)[C@@H](CCCCN)NC(=O)[C@H](N)CCCCN)C(C)C)[C@H](C)CC)[C@H](C)CC)C(=O)N[C@H](CO)C(=O)N[C@H](CC(C)C)C(=O)N[C@H](CCCCN)C(=O)N[C@H](CCCCN)C(=O)N[C@H](CCCCN)C(=O)N[C@H](CCCCN)C(=O)N[C@H](Cc1ccccc1)C(=O)N[C@H](CO)C(=O)N[C@H](C)C(=O)N[C@H](Cc1ccc(O)cc1)C(N)=O | broth microdilution | ATCC 29212 | highest value reported | 0.5 µM |
| COCCNc1nc(Cl)c2c(c1O)C(=O)C1=C(O)[C@]3(O)C(=O)C(C(N)=O)=C(O)[C@@H](N(C)C)[C@@H]3C[C@@H]1C2.Cl.Cl.Cl |  | tet(M)-carrying |  | 8 µg/mL |
| CC(C)C[C@@H](NC(=O)[C@H](C)NC(=O)CNC(=O)[C@@H](NC=O)C(C)C)C(=O)N[C@@H](C)C(=O)N[C@@H](C(=O)N[C@H](C(=O)N[C@@H](C(=O)N[C@@H](Cc1c[nH]c2ccccc12)C(=O)N[C@H](CC(C)C)C(=O)N[C@@H](Cc1cccc2cc[nH]c12)C(=O)N[C@H](CC(C)C)C(=O)N[C@@H](Cc1c[nH]c2ccccc12)C(=O)N[C@H](CC(C)C)C(=O)N[C@@H](Cc1c[nH]c2ccccc12)C(=O)NCCO)C(C)C)C(C)C)C(C)C | broth microdilution | JCM 5803 |  | 4.3 µM |
| CCCCCCCNC(=O)CP(=O)(O)O |  | ATCC 33186 |  | > 200 µg/mL |
| CNc1nc(Cl)c2c(c1O)C(=O)C1=C(O)[C@]3(O)C(=O)C(C(N)=O)=C(O)[C@@H](N(C)C)[C@@H]3C[C@@H]1C2.Cl.Cl.Cl |  | tet(M)-carrying |  | 8 µg/mL |

Repeated from above:
| SMILES | assay | test system | setting | MIC |
| --- | --- | --- | --- | --- |
| COCCNc1nc(Cl)c2c(c1O)C(=O)C1=C(O)[C@]3(O)C(=O)C(C(N)=O)=C(O)[C@@H](N(C)C)[C@@H]3C[C@@H]1C2.Cl.Cl.Cl |  | tet(M)-carrying |  | 8 µg/mL |
